Published values from different studies.
Compare with care: the assays were run in different laboratories. Values joined by “and” are separate records of one study, mostly repeats; a detail may differ. ± gives the spread as reported. ≈ marks a conversion by molar mass, not a printed value.

C=C(NC(=O)c1csc(-c2nc3c(cc2O)-c2nc(cs2)C(=O)NC(C(C)O)C(=O)NC(=C(C)OC)c2nc(cs2)C(=O)NC2c4nc(cs4)C(=O)NC(COC(=O)c4c5c6c(cccc6n4O)COC(=O)C(OC4CC(C)(O)C(N(C)C)C(C)O4)C2OC5)c2nc-3cs2)n1)C(N)=O (centres unmarked)  bacterial load (Streptococcus pneumoniae; -4, immunocompromised mice, lung infection, lung; 8 mg/kg/day once daily, 24 h post-dose): 4.74 log CFU/g
C[N+](C)(C)CCO.O=C([O-])C(Cl)Cl  herbicidal inhibition (Eclipta prostrata; 15 mg/mL, 21 days, post-emergence, greenhouse): 0%
COc1c(Br)cc(CCNC2=CC3=NCCc4c[nH]c(c43)C2=O)cc1Br  IC50 (Babesia divergens; parasite growth, SYBR Green; 60 h, blood stage): 0.572 µM
Cc1c(CN(C)C(=O)/C=C/c2cnc3c(c2)CC(N)C(=O)N3)oc2ccccc12 (centres unmarked)  MIC (Escherichia coli; broth microdilution; AR-0346): 8 µg/mL (≈ 20.5 µM)
N=C(N)NCCC[C@@H]1NC(=O)[C@H](CCCNC(=N)N)NC(=O)[C@@H](C(c2ccccc2)c2ccccc2)NC(=O)[C@H](Cc2c[nH]c3ccccc23)NC(=O)[C@@H](C(c2ccccc2)c2ccccc2)NC(=O)[C@@H](CCCNC(=N)N)NC(=O)[C@@H](CCCNC(=N)N)NC1=O  MIC (Candida parapsilosis; ATCC 22019): 16 µg/mL (≈ 12.7 µM)
CC(C)C[C@H](NC(=O)[C@H](Cc1ccc(O)cc1)NC(=O)[C@@H]1CCCN1C(=O)[C@H](CCCNC(=N)N)NC(=O)[C@@H]1CCCN1C(=O)[C@H](CCCCN)NC(=O)[C@H](CC(=O)O)NC(=O)[C@@H]1CCCN1C(=O)[C@H](CCCNC(=N)N)NC(=O)C1(N)CCCCC1)C(=O)N1CCC[C@H]1C(=O)N[C@@H](CCCNC(=N)N)C(=O)N1CCC[C@H]1C(=O)N[C@@H](CCCNC(=N)N)C(=O)N1CCC[C@H]1C(=O)N1CCC[C@H]1C(=O)N[C@@H](CCCNC(=N)N)C(=O)N1CCC[C@H]1C(=O)N[C@H](C(=O)N[C@@H](CCCNC(=N)N)C(=O)N[C@@H](CSCc1cccc(CSC[C@H](NC(=O)[C@H](CCCNC(=N)N)NC(=O)[C@@H](NC(=O)[C@@H]2CCCN2C(=O)[C@H](CCCNC(=N)N)NC(=O)[C@@H]2CCCN2C(=O)[C@@H]2CCCN2C(=O)[C@H](CCCNC(=N)N)NC(=O)[C@@H]2CCCN2C(=O)[C@H](CCCNC(=N)N)NC(=O)[C@@H]2CCCN2C(=O)[C@H](CC(C)C)NC(=O)[C@H](Cc2ccc(O)cc2)NC(=O)[C@@H]2CCCN2C(=O)[C@H](CCCNC(=N)N)NC(=O)[C@@H]2CCCN2C(=O)[C@H](CCCCN)NC(=O)[C@H](CC(=O)O)NC(=O)[C@@H]2CCCN2C(=O)[C@H](CCCNC(=N)N)NC(=O)C2(N)CCCCC2)C(C)C)C(=O)NN)c1)C(=O)NN)C(C)C  MDC (Acinetobacter baumannii; membrane disruption, propidium iodide uptake; 19606; 90 min, 37 °C): 23.7 ± 0.7 µg/mL
NCCOCCO.O=C(O)C(Cl)Cl  herbicidal inhibition (Eleusine indica; 15 mg/mL, 21 days, post-emergence, greenhouse): 0%
C[C@@H]1C(=O)O[C@@H](C)/C=C/C=C\[C@@H](C)[C@@H]2C=C[C@@H]3C[C@@]4(C)O[C@H]4[C@@H](C)[C@H]3[C@@H]2C(=O)C(Cl)(Cl)C1=O  MIC (Staphylococcus aureus; MRSA clinical isolate; resistant: OXA,CLI,ERY,GEN,TET): 0.025 µg/mL (≈ 0.0505 µM)
COC1C=COC2(C)Oc3c(C)c(O)c4c(c3C2=O)C2=NC3(CCN(CC(C)C)CC3)NC2=C(NC(=O)C(C)=CC=CC(C)C(O)C(C)C(O)C(C)C(OC(=O)Nc2cnccn2)C1C)C4=O (centres unmarked)  IC90 (Mycobacteroides abscessus; bacterial growth; subsp. massiliense 095 clinical isolate; mixed morphotype): 0.744 µM
Cc1cccc2c1N(C(=O)n1ccnn1)CC2  germination rate (Arabidopsis thaliana; kai2 mutant, seeds; 10 µM): 11.5% and 16.7% and 26.9% and 32.1% and 8.6% and 7.7%
CCN1CCC(CCNCc2cc3ccccc3nc2SCc2ccccc2)CC1  inhibition (Acinetobacter baumannii; NADH-driven proton pumping, ACMA quenching; inverted membrane vesicles; 2 µg/mL): 3%

For quick reference, copied from above:
NCCOCCO.O=C(O)C(Cl)Cl  herbicidal inhibition (Eleusine indica; 15 mg/mL, 21 days, post-emergence, greenhouse): 0%
C[C@@H]1C(=O)O[C@@H](C)/C=C/C=C\[C@@H](C)[C@@H]2C=C[C@@H]3C[C@@]4(C)O[C@H]4[C@@H](C)[C@H]3[C@@H]2C(=O)C(Cl)(Cl)C1=O  MIC (Staphylococcus aureus; MRSA clinical isolate; resistant: OXA,CLI,ERY,GEN,TET): 0.025 µg/mL (≈ 0.0505 µM)
